# Assay results collected from several papers.
# Lines come from different studies, so protocols differ. pIC50: −log10 of the molar value.
# Organism: Aspergillus fumigatus
Compound,assay,test system,setting,endpoint,result
CCCCCn1ccc([C@H](C)[C@](O)(Cn2cnnn2)c2ccc(F)cc2F)n1,"growth, broth microdilution",7544,"48 h, 35 °C, ≥50% inhibition",MIC,> 64 µg/mL
CCCCCCCCCC1CC2CCCC3CC(CCCCCCCCC)NC(=N1)N23 (stereo not drawn),microbial growth,ATCC204305,,pIC50,5.00
C[C@@H](c1ccn(Cc2ccc(Cl)cc2Cl)n1)[C@](O)(Cn1cnnn1)c1ccc(F)cc1F,"growth, broth microdilution",7544,"48 h, 35 °C, ≥50% inhibition",MIC,64 µg/mL
CCCCCCCCCCCCCCCCC1CC(=O)NCCCN(C)CCCCN(C)CCCN1C (stereo not drawn),microbial growth,ATCC90906,,IC50,7.5 µg/mL
CCCCCCCCCC1CC2CCC3CC(CCCCCCCCC)NC(=N1)N23 (stereo not drawn),fungal growth,ATCC 204305,,MFC,12 µM
CC[C@H](C)[C@H](NC(=O)[C@H](CCCCN)NC(=O)[C@H](CCCNC(=N)N)NC(=O)[C@H](CC(C)C)NC(=O)[C@H](Cc1ccccc1)NC(=O)[C@H](CCCNC(=N)N)NC(=O)CNC(=O)[C@H](Cc1ccccc1)NC(=O)[C@@H](N)CCCNC(=N)N)C(=O)N[C@@H](CCCNC(=N)N)C(=O)N[C@@H](CCCNC(=N)N)C(=O)N[C@@H](Cc1ccccc1)C(=O)N[C@@H](CCCNC(=N)N)C(=O)N1CCC[C@H]1C(=O)N[C@@H](CCCCN)C(=O)N[C@H](C(=O)N[C@H](C(=O)N[C@H](C(=O)N[C@H](C(=O)N[C@H](C(=O)N[C@@H](CCC(N)=O)C(=O)NCC(=O)N[C@@H](CO)C(=O)N[C@@H](C)C(=O)N[C@@H](CCCNC(=N)N)C(=O)N[C@@H](Cc1ccccc1)C(N)=O)[C@@H](C)CC)[C@@H](C)O)[C@@H](C)CC)[C@@H](C)O)C(C)C,"metabolic activity, resazurin",azole-resistant,"27 h, 37 °C",MIC,5 µM
CCCCn1ccc([C@H](C)[C@](O)(Cn2cnnn2)c2ccc(F)cc2F)n1,"growth, broth microdilution",7544,"48 h, 35 °C, ≥50% inhibition",MIC,> 64 µg/mL
CCCCCC1CC2CCCC3CC(C)N=C(N1)N32 (stereo not drawn),microbial growth,ATCC204305,,pIC50,4.47
N=C(N)NCCC[C@@H]1NC(=O)[C@H](CCCNC(=N)N)NC(=O)[C@H](CCCNC(=N)N)NC(=O)[C@H](Cc2ccc3ccccc3c2)NC(=O)[C@H](Cc2c[nH]c3ccccc23)NC(=O)[C@H](Cc2ccc3ccccc3c2)NC(=O)[C@H](CCCNC(=N)N)NC1=O,XTT,Af-293,2 × MIC,biofilm mass reduction,49 to 56%

# For quick reference, copied from above:
Compound,assay,test system,setting,endpoint,result
C[C@@H](c1ccn(Cc2ccc(Cl)cc2Cl)n1)[C@](O)(Cn1cnnn1)c1ccc(F)cc1F,"growth, broth microdilution",7544,"48 h, 35 °C, ≥50% inhibition",MIC,64 µg/mL
